Experimental data pooled from the literature.
Protocols differ between the studies behind these lines. ± gives the spread as reported.
Sequence of UniProt P28482 (whole entry, looked up): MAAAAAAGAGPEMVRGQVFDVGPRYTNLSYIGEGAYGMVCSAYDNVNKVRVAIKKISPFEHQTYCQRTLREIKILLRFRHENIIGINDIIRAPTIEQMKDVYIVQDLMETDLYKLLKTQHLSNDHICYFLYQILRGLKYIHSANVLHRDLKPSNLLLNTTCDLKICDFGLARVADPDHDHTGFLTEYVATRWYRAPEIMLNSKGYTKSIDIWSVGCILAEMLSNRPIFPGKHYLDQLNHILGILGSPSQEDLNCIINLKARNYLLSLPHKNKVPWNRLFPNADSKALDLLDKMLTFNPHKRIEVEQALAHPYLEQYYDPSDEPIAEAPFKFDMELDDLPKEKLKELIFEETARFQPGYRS
Sequence of UniProt Q8IZX4 (whole entry, looked up): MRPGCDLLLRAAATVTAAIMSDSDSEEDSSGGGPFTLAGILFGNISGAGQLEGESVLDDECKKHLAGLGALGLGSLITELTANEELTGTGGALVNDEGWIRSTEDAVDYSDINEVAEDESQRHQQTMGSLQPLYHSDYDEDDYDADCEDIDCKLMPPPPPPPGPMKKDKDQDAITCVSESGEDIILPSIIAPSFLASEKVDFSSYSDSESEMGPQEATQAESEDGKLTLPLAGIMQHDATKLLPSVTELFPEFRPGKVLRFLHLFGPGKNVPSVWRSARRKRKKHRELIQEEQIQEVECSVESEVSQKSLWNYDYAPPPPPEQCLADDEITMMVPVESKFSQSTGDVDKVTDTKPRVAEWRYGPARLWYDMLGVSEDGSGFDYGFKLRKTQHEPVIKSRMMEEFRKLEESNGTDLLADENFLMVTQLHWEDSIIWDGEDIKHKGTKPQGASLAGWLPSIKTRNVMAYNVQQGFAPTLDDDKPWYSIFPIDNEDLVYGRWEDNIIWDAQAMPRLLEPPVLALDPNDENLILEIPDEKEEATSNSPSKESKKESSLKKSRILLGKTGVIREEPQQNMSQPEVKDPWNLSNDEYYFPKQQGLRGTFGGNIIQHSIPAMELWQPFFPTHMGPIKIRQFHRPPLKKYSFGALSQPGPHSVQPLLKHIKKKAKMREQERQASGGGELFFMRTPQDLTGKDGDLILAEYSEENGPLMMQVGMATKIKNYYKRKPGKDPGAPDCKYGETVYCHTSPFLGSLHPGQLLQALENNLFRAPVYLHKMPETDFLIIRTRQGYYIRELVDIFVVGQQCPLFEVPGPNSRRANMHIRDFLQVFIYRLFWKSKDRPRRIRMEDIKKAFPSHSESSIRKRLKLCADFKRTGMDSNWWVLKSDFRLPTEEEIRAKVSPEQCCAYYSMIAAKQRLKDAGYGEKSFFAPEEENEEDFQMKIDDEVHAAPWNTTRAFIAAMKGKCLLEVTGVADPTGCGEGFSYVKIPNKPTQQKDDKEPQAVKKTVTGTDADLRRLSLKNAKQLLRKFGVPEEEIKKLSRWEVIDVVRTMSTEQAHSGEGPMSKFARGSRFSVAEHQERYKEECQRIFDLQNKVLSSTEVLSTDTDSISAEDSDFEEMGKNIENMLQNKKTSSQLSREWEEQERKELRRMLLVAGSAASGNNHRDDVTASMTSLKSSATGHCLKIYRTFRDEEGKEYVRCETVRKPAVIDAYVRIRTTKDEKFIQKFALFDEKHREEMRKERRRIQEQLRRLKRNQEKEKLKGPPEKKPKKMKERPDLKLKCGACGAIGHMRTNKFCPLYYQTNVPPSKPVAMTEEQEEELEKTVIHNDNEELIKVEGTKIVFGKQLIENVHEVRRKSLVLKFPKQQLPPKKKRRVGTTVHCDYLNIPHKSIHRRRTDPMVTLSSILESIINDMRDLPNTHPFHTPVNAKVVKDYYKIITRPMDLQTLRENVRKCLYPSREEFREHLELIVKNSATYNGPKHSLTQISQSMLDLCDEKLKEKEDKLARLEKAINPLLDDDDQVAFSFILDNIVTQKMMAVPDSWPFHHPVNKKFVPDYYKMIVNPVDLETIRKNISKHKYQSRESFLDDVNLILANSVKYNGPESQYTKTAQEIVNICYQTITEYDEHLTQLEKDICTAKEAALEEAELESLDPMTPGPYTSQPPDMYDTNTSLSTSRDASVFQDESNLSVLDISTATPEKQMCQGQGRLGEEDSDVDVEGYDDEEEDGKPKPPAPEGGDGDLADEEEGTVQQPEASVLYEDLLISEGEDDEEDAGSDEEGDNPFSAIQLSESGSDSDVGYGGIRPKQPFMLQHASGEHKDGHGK
Sequence of UniProt O75385 (whole entry, looked up): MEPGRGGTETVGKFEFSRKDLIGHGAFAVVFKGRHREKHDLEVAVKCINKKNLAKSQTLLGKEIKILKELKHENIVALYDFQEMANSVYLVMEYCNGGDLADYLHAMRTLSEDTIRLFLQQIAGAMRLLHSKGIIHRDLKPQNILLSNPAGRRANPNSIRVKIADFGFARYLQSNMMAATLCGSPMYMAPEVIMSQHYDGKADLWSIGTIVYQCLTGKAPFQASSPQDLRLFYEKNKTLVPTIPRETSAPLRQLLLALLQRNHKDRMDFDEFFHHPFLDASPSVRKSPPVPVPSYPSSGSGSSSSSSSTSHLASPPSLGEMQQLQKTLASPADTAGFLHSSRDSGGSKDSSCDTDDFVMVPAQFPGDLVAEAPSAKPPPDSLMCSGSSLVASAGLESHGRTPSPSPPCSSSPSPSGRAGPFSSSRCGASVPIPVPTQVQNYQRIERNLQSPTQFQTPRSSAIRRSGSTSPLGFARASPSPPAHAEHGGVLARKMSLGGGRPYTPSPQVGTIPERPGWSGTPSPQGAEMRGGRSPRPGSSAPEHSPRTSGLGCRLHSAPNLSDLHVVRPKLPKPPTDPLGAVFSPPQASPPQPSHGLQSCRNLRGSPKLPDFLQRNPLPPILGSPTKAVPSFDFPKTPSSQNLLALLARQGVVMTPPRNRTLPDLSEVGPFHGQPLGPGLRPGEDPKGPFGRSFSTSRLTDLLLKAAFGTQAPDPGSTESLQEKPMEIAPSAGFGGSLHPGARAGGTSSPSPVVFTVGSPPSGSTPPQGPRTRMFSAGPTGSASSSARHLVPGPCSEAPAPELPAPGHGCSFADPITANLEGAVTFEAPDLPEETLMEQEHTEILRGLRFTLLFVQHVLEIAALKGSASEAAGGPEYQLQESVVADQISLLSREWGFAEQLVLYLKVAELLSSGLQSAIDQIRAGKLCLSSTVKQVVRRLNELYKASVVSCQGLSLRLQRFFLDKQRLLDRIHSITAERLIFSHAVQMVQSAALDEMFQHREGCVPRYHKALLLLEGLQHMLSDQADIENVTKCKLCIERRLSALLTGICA
Sequence of UniProt Q99572 (whole entry, unmodified, looked up): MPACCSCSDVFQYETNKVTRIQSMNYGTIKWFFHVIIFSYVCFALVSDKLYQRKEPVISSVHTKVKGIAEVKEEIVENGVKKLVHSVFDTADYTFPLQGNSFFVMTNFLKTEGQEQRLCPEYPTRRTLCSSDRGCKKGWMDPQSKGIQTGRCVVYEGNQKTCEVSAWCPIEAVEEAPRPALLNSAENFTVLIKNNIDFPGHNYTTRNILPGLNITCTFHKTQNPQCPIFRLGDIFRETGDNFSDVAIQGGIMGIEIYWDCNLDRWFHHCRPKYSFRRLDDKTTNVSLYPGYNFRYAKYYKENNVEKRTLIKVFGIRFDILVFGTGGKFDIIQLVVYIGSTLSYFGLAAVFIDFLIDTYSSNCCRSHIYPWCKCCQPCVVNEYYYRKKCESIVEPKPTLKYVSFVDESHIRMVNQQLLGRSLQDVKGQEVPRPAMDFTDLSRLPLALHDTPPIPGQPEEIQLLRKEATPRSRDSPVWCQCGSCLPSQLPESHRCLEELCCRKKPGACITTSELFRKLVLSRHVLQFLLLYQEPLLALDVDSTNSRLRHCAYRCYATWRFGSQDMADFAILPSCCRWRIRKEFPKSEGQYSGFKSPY
Sequence of UniProt Q99759 (whole entry, looked up): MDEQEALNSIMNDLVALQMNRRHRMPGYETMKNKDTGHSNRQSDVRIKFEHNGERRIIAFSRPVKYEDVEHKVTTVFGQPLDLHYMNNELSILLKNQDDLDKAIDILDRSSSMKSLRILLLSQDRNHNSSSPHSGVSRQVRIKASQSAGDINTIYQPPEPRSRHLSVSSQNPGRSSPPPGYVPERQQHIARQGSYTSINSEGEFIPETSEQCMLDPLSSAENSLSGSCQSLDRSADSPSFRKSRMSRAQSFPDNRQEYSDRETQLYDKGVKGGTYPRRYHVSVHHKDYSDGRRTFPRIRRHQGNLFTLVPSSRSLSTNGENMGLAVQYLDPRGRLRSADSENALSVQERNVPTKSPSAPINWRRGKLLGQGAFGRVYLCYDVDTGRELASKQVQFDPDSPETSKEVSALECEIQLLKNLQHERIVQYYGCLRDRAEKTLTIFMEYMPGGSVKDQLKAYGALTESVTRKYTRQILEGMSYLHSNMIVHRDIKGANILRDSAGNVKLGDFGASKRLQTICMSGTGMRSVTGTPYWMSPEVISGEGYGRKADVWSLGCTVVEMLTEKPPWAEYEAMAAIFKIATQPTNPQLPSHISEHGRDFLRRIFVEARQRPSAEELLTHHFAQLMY

C=CC(=O)N1CCC[C@@H](n2nc(-c3ccc(Oc4ccccc4)cc3)c3c(N)ncnc32)C1
remaining activity (MAPK1 (Homo sapiens, UniProt P28482); 0.1 µM): 40.9%

O=C(O)c1ccc(Nc2ncc3c(n2)-c2ccc(Cl)cc2C(c2c(F)cccc2F)=NC3)cc1
remaining activity (GRK6(h); kinase activity; 1 µM): 110%

COc1cc(-c2cncc3c2CN(C)Cc2cc(N4CCNCC4)ccc2-3)cc(OC)c1OC
remaining activity (TAF1L (Homo sapiens, UniProt Q8IZX4); kinase activity; 1 µM, human enzyme, added: ATP 10 µM; baseline: DMSO control): 115%

COc1ccc(F)cc1C(=O)NCc1ccc(-c2nn([C@@H](C)C(F)(F)F)c(N)c2C(N)=O)cc1
remaining activity (MAP3K3 (Homo sapiens, UniProt Q99759); kinase activity, inhibitor, HotSpot radiometric; 1000 nM, added: ATP at Km): 82.2 ± 2.5%

Cc1cc(Nc2cc(N3CCN(C)CC3)nc(Sc3ccc(NC(=O)C4CC4)cc3)n2)[nH]n1
remaining activity (HIPK3 (Homo sapiens, UniProt Q9H422); kinase activity, KinaseProfiler; 0.03 µM, species human; baseline: control): 109%

COc1cc(Nc2ncc3c(n2)-c2ccc(Cl)cc2C(c2c(F)cccc2OC)=NC3)ccc1C(=O)O
remaining activity (STK22B; kinase activity; 1 µM): 111%

COc1cc(F)ccc1-c1ncnc(Nc2cccc(C[S@](C)(=N)=O)c2)n1
remaining activity (PRKCQ (Homo sapiens, UniProt Q04759); kinase activity; 10 µM, added: 10 µM ATP): 102%

COc1cc(N2CCN(C)CC2)ccc1Nc1nc(N)n(C(=S)NCc2c(Cl)cccc2Cl)n1
remaining activity (MAST1 (Homo sapiens, UniProt Q9Y2H9); enzyme activity; 10 µM; baseline: control): 13%

O=C(NC1CCC1)c1ccc2nc(-c3cccc(NS(=O)(=O)NCCN4CCCCC4)c3)cn2c1
remaining activity (ULK1 (Homo sapiens, UniProt O75385); enzyme activity; 10 µM): 85%

C=CC[C@H]1c2ccc(OC)c(OC)c2CN2CCc3cc4c(cc3[C@@H]12)OCO4
remaining activity (P2X purinoceptor 7 (P2RX7, Homo sapiens, UniProt Q99572); ATP-evoked current, inhibitor, whole-cell patch clamp; HEK293 transfected; 3 µM): 89.5%

A few entries again:
C=CC(=O)N1CCC[C@@H](n2nc(-c3ccc(Oc4ccccc4)cc3)c3c(N)ncnc32)C1
remaining activity (MAPK1 (Homo sapiens, UniProt P28482); 0.1 µM): 40.9%

O=C(O)c1ccc(Nc2ncc3c(n2)-c2ccc(Cl)cc2C(c2c(F)cccc2F)=NC3)cc1
remaining activity (GRK6(h); kinase activity; 1 µM): 110%
